Results of several laboratories.
Numbered parts are unrelated; each lists some results of a single study. Positions count from the first letter of the parent shown.

Series 1
Target: RING finger protein unkempt homolog, zinc fingers 1-6, GST-SBP tag (UNK, Homo sapiens, UniProt Q9C0B0, residues 30-357)
Method: RNA Bind-n-Seq
Form: RNA
Matrix: in vitro
Concentration: not given
Notes: RNA with constant flanks, ends assumed
Baseline: input RNA pool
Reading: higher = stronger binding
Shared flanks, not repeated: GGGAGUUCUACAGUCCGACGAUC … CAACAGAGGAUUGAGCAUCA
Residues (chain): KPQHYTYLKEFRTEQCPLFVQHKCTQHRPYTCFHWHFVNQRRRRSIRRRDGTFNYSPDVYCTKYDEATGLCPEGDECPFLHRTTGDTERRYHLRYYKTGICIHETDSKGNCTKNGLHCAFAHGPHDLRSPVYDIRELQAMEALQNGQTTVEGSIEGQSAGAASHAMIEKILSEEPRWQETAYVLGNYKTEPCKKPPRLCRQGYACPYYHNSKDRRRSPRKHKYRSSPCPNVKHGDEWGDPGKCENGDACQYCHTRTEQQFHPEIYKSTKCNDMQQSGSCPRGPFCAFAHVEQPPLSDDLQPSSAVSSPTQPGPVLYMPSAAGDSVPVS
Oligonucleotide | bound/input enrichment [ratio]
UUUUUUUUUCCUCUUAACUCUGUCUGCUCUUAAAGCCAGGCAACCCAGUUUGGUCUCAGGCACCGCCUGAGCAGAUCUUAGUUUUGCCCCCACCACCAUAGUUUUGUGCUAUCCUAGUUU | 5.61
UAUGUGGAGACAGAAUUGAUAUUUGCACUGGCUAAAACAAACCGCCUUGCAGAAUCCGAAGAGUUCAUCAAUGGGCCAAAUAAUGCUCAUAUUCAGCAAGUUGGUGACCGUUGUUAUGAU | 0.0937
AGGACCGUGCAGAACCCAGCUGCAUUGAAGACCAAUGGAGAGCAUGUAUUUUAACUUGGAUUCCGGCAGGAAGUGAUACAUGAUGGUGAAGAAAACGGCCCUGAAGAAUGGACCAUAUUC | 0.155
UUACAUUAAAAAUCAUUGUACUUGCACAACUUAAUUUAGAAAAAGAAUGUGUAUUUCUUCAACCGCCGAGCAUAAGGAUUGCACCCUGUAUCUGAAUGUGGCUCUUUGGAUGGAAGUGCA | 1.33
UAUUUAGUUUUCUGUAGGGUUUUUUGGUUUUGGGGGGGGGGUUGUUUGUUUGUUUGUUGUUUCCGUUUUUGGAAGGAGGGAUGGACUCCACCAGUGUCAGUGUCGGUGUGUCUUAUGUCU | 4.92
AAGGCCCUGCAGGAGCAGCUCAGUGAGAUUCGGAGUCGAGAAGAAGAGCCGUUUUCAUUUUACCGCGAUCAAACAUCGUAUCUGAGUAUUUGCCUUGAAGAGCACAAUCAGUUCCAAUUG | 0.292
GCUGAAAAUGAAGAAGAGGCAGCUGAUGUCUGGUACAACUUGGGACAUGUAGCUGUGGGAACCGGAGAUACAAAUUUGGCCCAUCAGUGCUUCAGGCUGGCUCUGGUCAACAACAACAAC | 0.142
UCCUCACUGGAAAACAUGCUUUUGUUUAACAGUCCUUCUGUUGGCCCUGAUGCUCCCAAGACCGAGGACUUGAAGUGGCAUUCUGCAUUCUUCAGAAAACAAAUGGGUACUUCCUUGGUU | 0.161

Series 2
Target: Interferon regulatory factor 5, full length, phosphomimetic (IRF5, Homo sapiens, UniProt Q13568-2, residues 1-514, K96S/S451D/S453D/S456D/S462D)
Method: protein-binding microarray
Form: double-stranded DNA, one strand shown
Matrix: in vitro
Concentration: 250 nM
Notes: 60-bp whole probe
With: salmon DNA 0.4 mg/ml
Baseline: random background probes
Reading: higher = stronger binding
Shared flanks, not repeated: GCCTAGCAC … GTCTTGATTCGCTTGACGCTGCTG
Oligonucleotide | log fluorescence
TTAGGTCTCGAACTGGGTTAGTGCTAG | -0.207 z-score
TCAGGTTTTCTAATGTTACTGTGCTAG | 0.491 z-score
TTAGAACTGAGTACCGATTAGTGCTAG | 0.0782 z-score
GACGGTCTCCTACTGCTGTCGTGCTAG | -0.234 z-score
CAGAATCCAGCTCAGGTTGTGTGCTAG | -0.21 z-score
TCAGTTCTAAATATCTTACTGTGCTAG | 0.487 z-score
TTAGACATCAGTTTCGATTAGTGCTAG | 9.52 z-score
GAGGGTTTCCTTATCCTGACGTGCTAG | 0.124 z-score
TTAGATATCAGTTTCTATTAGTGCTAG | 5.22 z-score
TTAGGTCTCTGACTGGGTTAGTGCTAG | -0.513 z-score
TTGGGTCTCCTTATCCTTTAGTGCTAG | -0.378 z-score
GACGGTTGCGGGTATCGGGACGTGCTA | 0.606 z-score
ATAGGACTGGGTTTCGGTTAGTGCTAG | 7.82 z-score
TTAGGTCTCGGTTTGGGTTAGTGCTAG | 0.885 z-score
TTAAATATCAGTATCGATTAGTGCTAG | 8.42 z-score
TTAGGACTGCTTCACCTTTAGTGCTAG | -0.376 z-score
GACGATTTCAGTATCGAGCCGTGCTAG | 2.81 z-score
TTAGGTATCCGTATCCTTTAGTGCTAG | 0.279 z-score

Series 3
Target: CCNE1, cyclin fold, Cln2 fusion (human)
Method: yeast growth competition, sequencing
Matrix: yeast
Notes: weak parent motif
Baseline: not given
Reading: higher = stronger binding
Starting sequence: WEE1 docking peptide (human); HKTFRKLRLFDTP
Substitution | normalised enrichment score
NKTFRKLRLFDTP [H1N] | 0.839
HKTFDKLRLFDTP [R5D] | 0.666
HKTFRKLRLFDTH [P13H] | -0.984
HKRFRKLRLFDTP [T3R] | -0.0768
HKTFRKLRLFITP [D11I] | 0.499
HKIFRKLRLFDTP [T3I] | 0.972
HKTFCKLRLFDTP [R5C] | -0.0068
HKTFRKLRLFDIP [T12I] | 1.22
HKTFRKLRLFDLP [T12L] | 0.212
HKTFRKLRLADTP [F10A] | 0.739
HKTFRKLQLFDTP [R8Q] | 1.13
HDTFRKLRLFDTP [K2D] | 1.11
HKTFRKLSLFDTP [R8S] | 0.773
HKTFRDLRLFDTP [K6D] | 0.836
HKTHRKLRLFDTP [F4H] | 1.04
TKTFRKLRLFDTP [H1T] | 0.883
HKTFLKLRLFDTP [R5L] | 0.373
HKTFAKARLFDTP [R5A L7A] | 1.01
HKTFRKLYLFDTP [R8Y] | 2.28

Series 4
Target: Prothrombin, mature alpha-thrombin (F2, Homo sapiens, UniProt P00734)
Method: aptamer microarray, sandwich
Form: DNA with 2'F-ANA
Matrix: in vitro
Concentration: 200 nM
Notes: whole 15-mer aptamer, many near background
With: Cy3 exosite-II aptamer, 400 nM
Reading: higher = stronger binding
Oligonucleotide: GGTTGGTGTGGTTGG
Modification | mean fluorescence intensity
2'F-ANA at 1 3 4 5 6 7 8 9 10 11 12 13 14 15 | 60 a.u.
2'F-ANA at 2 3 5 6 7 9 10 11 13 14 | 63.9 a.u.
2'F-ANA at 1 2 5 9 10 11 12 | 52.5 a.u.
2'F-ANA at 2 3 4 7 12 13 14 15 | 365 a.u.
2'F-ANA at 2 4 7 8 10 11 13 | 71.3 a.u.
2'F-ANA at 2 4 5 7 14 15 | 45.4 a.u.
2'F-ANA at 1 2 3 6 8 9 10 11 12 15 | 73.7 a.u.
2'F-ANA at 1 2 5 7 10 11 15 | 44.4 a.u.
2'F-ANA at 1 4 5 7 8 10 11 12 15 | 50.2 a.u.
2'F-ANA at 5 6 7 9 11 13 | 52.1 a.u.
2'F-ANA at 5 6 8 9 11 12 13 | 89.4 a.u.
2'F-ANA at 1 6 7 8 9 10 11 12 13 14 | 51.3 a.u.
2'F-ANA at 1 4 6 15 | 129 a.u.
2'F-ANA at 1 2 3 4 5 7 8 9 10 12 | 49.4 a.u.
2'F-ANA at 1 4 10 | 78.4 a.u.
2'F-ANA at 1 2 3 7 8 9 10 11 12 13 | 80.1 a.u.
2'F-ANA at 4 5 9 12 | 169 a.u.
2'F-ANA at 3 6 7 13 14 | 559 a.u.
2'F-ANA at 2 5 6 7 9 11 12 | 207 a.u.

Series 5
Target: Histone acetyltransferase KAT6A, both winged helices, GST fusion (KAT6A, Homo sapiens, UniProt Q92794, residues 1-181)
Method: protein binding microarray
Form: double-stranded DNA, one strand shown
Matrix: in vitro
Concentration: not given
Notes: 8-mer, flanks averaged, mean of 2 arrays, mostly near background
Baseline: not given
Reading: higher = stronger binding
Target sequence (chain): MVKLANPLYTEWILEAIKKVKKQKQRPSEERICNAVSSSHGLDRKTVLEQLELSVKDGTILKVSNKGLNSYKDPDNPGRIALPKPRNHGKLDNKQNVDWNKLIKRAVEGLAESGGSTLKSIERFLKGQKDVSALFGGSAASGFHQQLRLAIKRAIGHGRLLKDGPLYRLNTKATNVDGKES
Oligonucleotide | E-score
CAATACGC | 0.069
GGGTCCTA | -0.194
AGCGCATG | 0.153
AATTACGC | 0.0837
CGTAGGAG | -0.00481
GCACGGTA | 0.159
AAGACGCG | 0.195
GGCCCCAC | -0.135
CTCTGCAA | -0.122
AGAATGCA | -0.0563
CATCTCTA | -0.12
AGTGTCGA | -0.0297
TCGCGCAA | 0.301
CAGTCTCC | -0.0103
CGACACGA | 0.122
ATTCCGGA | 0.173
GCGAACCC | 0.177

Repeated from above (series 5):
Oligonucleotide | E-score
GCACGGTA | 0.159
AAGACGCG | 0.195
GGCCCCAC | -0.135
CTCTGCAA | -0.122
AGAATGCA | -0.0563
CATCTCTA | -0.12
AGTGTCGA | -0.0297
TCGCGCAA | 0.301
CAGTCTCC | -0.0103
CGACACGA | 0.122
ATTCCGGA | 0.173
